Experimental data pooled from the literature.
Numbered parts are unrelated; each lists some results of a single study.

Set 1
Target: RNA binding protein fox-1 homolog 2, RRM domain, GST-SBP tag (RBFOX2, Homo sapiens, UniProt O43251-10, residues 100-194)
Technique: RNA Bind-n-Seq
Molecule type: RNA
Matrix: in vitro
Tested at: 365 nM
Setting: natural RNA segment, single round, ends assumed
Reference: no-protein control
Direction: higher = stronger binding
Quantity: RBNS enrichment (R)
Residues (chain): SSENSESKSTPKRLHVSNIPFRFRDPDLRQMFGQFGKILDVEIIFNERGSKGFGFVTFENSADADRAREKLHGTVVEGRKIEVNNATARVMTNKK
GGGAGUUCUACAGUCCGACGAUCUUAUGAGGCACCUACCUUCAUUUUGCUAACGCUUAUUCUGAAUAAAAGUUUUUGAUUCCUUAAAGACUCUUUUCUCUUUUGGUUUUUUAUGAGAAACACAGCAUUUGAUCUGGAAUUCUCGGGUGCCAA: 0.524
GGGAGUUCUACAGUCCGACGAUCAAGCCACUAUGCAAUUUCUACCAAUGGAGAGAUUAGGGAAGCAAAUUAAGCCUCAUUCAGUAGGUCUGCUGUCUGGUGGAACUUACGGAACUCAUUUCCUCCUCUAUCCCUGGAAUUCUCGGGUGCCAA: 0.309
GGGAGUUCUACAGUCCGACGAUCCCUGGCCCCCAAGACUGCCUCUGUCAUGGUCACUAUUUAUUCUUGGUCCCUUUUUCUUUUUGUAAGAAACAGUCACAAGAAAACAACAACAACAACAAAAAACAACCAAUUGGAAUUCUCGGGUGCCAA: 0.478
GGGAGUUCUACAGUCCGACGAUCGCCUGCCCCUCUCAACCUUCUGCACCUCUGCCUCCAACUUGUCUCGGGAGAUUGAGUCUGCACAUCACCAGUUGCCAUGUUCACUGGGCCAGUGCCCACCCGUCCACGUUUGGAAUUCUCGGGUGCCAA: 1.54
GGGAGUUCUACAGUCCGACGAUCGUGGCUAGAGGUGGGGUGGGAAGAGAGGAGGCCAGGCCAGGCCCUCAGGAAUUCCCUGGUUUCCACUGGGCCACCCACUUGCUGGACAGUCUGAGCCAAGUCCCUCCUGCUGGAAUUCUCGGGUGCCAA: 0.293

Set 2
Target: Sal-like protein 4, full length isoform A (SALL4, Homo sapiens, UniProt Q9UJQ4, residues 1-1053)
Chain of UniProt Q9UJQ4 (whole entry, looked up): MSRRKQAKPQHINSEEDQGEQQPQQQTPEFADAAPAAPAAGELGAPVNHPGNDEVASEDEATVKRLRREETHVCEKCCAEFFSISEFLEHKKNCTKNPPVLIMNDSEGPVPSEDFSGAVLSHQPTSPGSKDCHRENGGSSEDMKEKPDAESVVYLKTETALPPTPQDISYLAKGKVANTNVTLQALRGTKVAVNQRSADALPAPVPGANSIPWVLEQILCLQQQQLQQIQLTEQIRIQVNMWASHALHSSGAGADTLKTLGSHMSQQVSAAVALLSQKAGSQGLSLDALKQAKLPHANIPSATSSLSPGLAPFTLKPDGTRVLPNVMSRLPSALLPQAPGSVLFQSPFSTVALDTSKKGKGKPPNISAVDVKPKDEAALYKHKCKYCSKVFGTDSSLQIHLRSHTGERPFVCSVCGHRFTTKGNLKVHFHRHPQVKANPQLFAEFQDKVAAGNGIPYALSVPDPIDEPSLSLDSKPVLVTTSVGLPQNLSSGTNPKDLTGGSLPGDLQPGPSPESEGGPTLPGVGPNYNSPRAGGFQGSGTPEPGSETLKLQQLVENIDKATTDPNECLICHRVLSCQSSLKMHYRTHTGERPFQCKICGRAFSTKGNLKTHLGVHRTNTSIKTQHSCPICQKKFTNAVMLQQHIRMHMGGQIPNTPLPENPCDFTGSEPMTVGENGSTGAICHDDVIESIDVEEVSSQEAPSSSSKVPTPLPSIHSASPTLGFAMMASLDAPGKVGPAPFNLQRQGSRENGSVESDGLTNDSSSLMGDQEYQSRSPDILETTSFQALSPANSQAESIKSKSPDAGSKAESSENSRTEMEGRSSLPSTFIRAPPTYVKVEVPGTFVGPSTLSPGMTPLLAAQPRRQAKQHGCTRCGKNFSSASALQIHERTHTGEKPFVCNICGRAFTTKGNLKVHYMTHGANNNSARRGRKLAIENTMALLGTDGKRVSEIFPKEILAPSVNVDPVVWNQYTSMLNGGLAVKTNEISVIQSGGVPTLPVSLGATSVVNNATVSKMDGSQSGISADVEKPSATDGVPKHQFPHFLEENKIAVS
Technique: universal PBM
Molecule type: double-stranded DNA, one strand shown
Matrix: in vitro
Tested at: 600 nM
Setting: 8-mer, flanks averaged, mean of replicates
Direction: higher = stronger binding
Quantity: E-score
GGAGACCC: -0.32
CTGTCCCA: -0.096
AATGGTCT: 0.114
CTTCTGGA: -0.136
ATGGTGTA: 0.155
TATCTGCA: 0.179

Set 3
Target: Histone acetyltransferase KAT6A, winged helix 1, GST fusion (KAT6A, Homo sapiens, UniProt Q92794, residues 1-85)
Technique: protein binding microarray
Molecule type: double-stranded DNA, one strand shown
Matrix: in vitro
Tested at: not given
Setting: 8-mer, flanks averaged, mean of 2 arrays, mostly near background
Reference: not given
Direction: higher = stronger binding
Quantity: E-score
Target sequence (chain): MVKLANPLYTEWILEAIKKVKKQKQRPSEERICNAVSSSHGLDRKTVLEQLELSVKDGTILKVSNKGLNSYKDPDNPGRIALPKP
GTCCAGCA: -0.313
CCAGATGA: -0.0982
TGGAGCCA: -0.186
CCACTCGA: -0.222
CATCTTGA: -0.298
CAGCATGG: -0.108
CAGCACGG: 0.15
AAAACCTT: -0.12

Single results of other studies
PhoQ, residues 284 288 289 292 302 303 ASTSDA — fold induction (PhoP, residues 12 14 15 18 19 QWHVF (Escherichia coli, UniProt P23836); Sort-seq, item: YFP reporter; E. coli; PhoQ-PhoP variant library, with: 10 µM Mg2+; reference: high Mg2+ state, higher = stronger signaling): 16.2
